Measurements from different studies.
Each numbered part is a random draw from the data of one study; scales do not carry over between parts. Several values in a cell are separate wells, animals, samples, runs or records.

Block 1
Structure (SMILES): COCC1CC2C(CCC3C(O)CCC32)c2ccc(O)cc21 (stereo not drawn)
| cell line | assay | conditions | how to read | log2 fold change |
| --- | --- | --- | --- | --- |
| A549 | microarray, refers to: SPC25 | 100 µM | baseline: untreated | -0.593 |
| SK-OV-3 | microarray, refers to: GZMK | 100 µM | baseline: untreated | 0 |
| SK-OV-3 | DNA microarray, refers to: MCM7 | 25 µM | baseline: untreated cells | 0.0149 |
| SK-OV-3 | DNA microarray, refers to: ADAMTS14 | 100 µM | baseline: untreated | 2.3 |
| PANC-1 | microarray, refers to: MCM6 | 25 µM | baseline: untreated | 0.603 |
| SK-OV-3 | microarray, refers to: RFC3 | 25 µM | baseline: untreated | 0.418 |
| A549 | DNA microarray, refers to: MCM10 | 25 µM | baseline: untreated cells | 0.192 |
| SK-OV-3 | DNA microarray, refers to: KIF20A | 100 µM | baseline: untreated cells | -0.104 and -0.0287 and -0.0359 and -0.0728 and -0.0127 |
| A549 | microarray, refers to: PIF1 | 100 µM | baseline: untreated | -0.523 |
| SK-OV-3 | DNA microarray, refers to: CCL8 | 25 µM | baseline: untreated control | 0 |
| A549 | microarray, refers to: GZMK | 100 µM | baseline: untreated | 0 |
| SK-OV-3 | microarray, refers to: MCM6 | 100 µM | baseline: untreated | -0.0994 |
| SK-OV-3 | microarray, refers to: AURKA | 100 µM | baseline: untreated | 0.0601 |
| SK-OV-3 | DNA microarray, refers to: ADAMTS8 | 25 µM | baseline: untreated | 4.84 |
| PANC-1 | DNA microarray, refers to: KIF20A | 100 µM | baseline: untreated cells | 0.505 and 0.535 and 0.532 and 0.529 and 0.52 |
| PANC-1 | microarray, refers to: AURKA | 25 µM | baseline: untreated | 0.596 |
| A549 | DNA microarray, refers to: MCM7 | 100 µM | baseline: untreated cells | -0.449 |
| PANC-1 | microarray, refers to: CDC25B | 100 µM | baseline: untreated | 0.168 |
| A549 | microarray, refers to: CCL11 | 25 µM | baseline: untreated | 9.11 |
| SK-OV-3 | DNA microarray, refers to: CCL8 | 100 µM | baseline: untreated control | 0 |
| SK-OV-3 | DNA microarray, refers to: ACTA2 | 25 µM | baseline: untreated control | -0.642 |
| A549 | DNA microarray, refers to: KIF20A | 100 µM | baseline: untreated cells | -0.28 and -0.23 and -0.245 and -0.266 and -0.229 |

Block 2
SMILES: CCN1/C(=C/C=C2\CCCC(/C=C/C3=[N+](CC)c4ccccc4C3(C)C)=C2NCCCCCCCCN2CCC(Nc3nc4ccccc4n3Cc3ccc(F)cc3)CC2)C(C)(C)c2ccccc21
Cell line: U-87 MG
Concentration: concentration not given
Baseline: DMSO
| assay | log2 fold change |
| --- | --- |
| refers to: MIA2 mRNA | 1.05 |
| refers to: RFTN2 mRNA | 1.76 |
| refers to: GOLGA6L9 mRNA | 1.24 |
| refers to: SLC22A23 mRNA | -1.06 |
| refers to: KRT80 mRNA | -1.29 |
| refers to: TCEA1 mRNA | 0.922 |
| refers to: HILPDA mRNA | 3.51 |
| refers to: CDCA5 mRNA | -1.54 |
| refers to: FPR1 mRNA | -2.25 |
| refers to: HEY1 mRNA | 1.12 |
| refers to: SPEG mRNA | -1.54 |
| refers to: ASB9 mRNA | -2.8 |
| refers to: ZNF777 mRNA | 0.836 |
| refers to: TMSB4X mRNA | -1.58 |
| refers to: MORN3 mRNA | 1.86 |
| refers to: APOBEC3C mRNA | -1.03 |

Block 3
Cell line: L444P/L444P Gaucher fibroblasts
Technique: 4-MUG hydrolysis in lysate
Concentration: 0.1 µM
Time: 72 h
Baseline: vehicle
| Compound | enzyme activity |
| --- | --- |
| CCOc1ccc2nc(Sc3nc(Nc4ccc(I)cc4)nc(N4CCOCC4)n3)sc2c1 | 102% and 101% and 106% and 100% |
| Ic1ccc(Nc2nc(NCCN3CCOCC3)nc(N3CCCC3)n2)cc1 | 99% |
| Ic1ccc(Nc2nc(NCCCN3CCOCC3)nc(N3CCOCC3)n2)cc1 | 109% |
| CCOc1ccc2nc(Sc3nc(N4CCOCC4)nc(N4CCOCC4)n3)sc2c1 | 102% |
| Ic1ccc(Nc2nc(NCCN3CCOCC3)nc(NC3CCCCC3)n2)cc1 | 97% |
| Ic1ccc(Nc2nc(NCCc3c[nH]c4ccccc34)nc(N3CCOCC3)n2)cc1 | 217% and 193% and 214% and 162% and 207% and 191% and 172% and 215% |
| Cc1ccc(Nc2nc(NCCN3CCOCC3)nc(N3CCOCC3)n2)cc1 | 102% |
| Ic1ccc(Nc2nc(N3CCOCC3)nc(N3CCOCC3)n2)cc1 | 114% |
| Ic1ccc(Nc2nc(NCCc3c[nH]c4ccccc34)nc(NCCN3CCOCC3)n2)cc1 | 99% |
| Ic1ccc(Nc2nc(NCCN3CCOCC3)nc(N3CCCCC3)n2)cc1 | 99% |

Block 4
Compound: Cc1ncsc1-c1ccc(C(CO)NC(=O)C2CC(O)CN2C(=O)C(C(C)C)n2cc(-c3ccc(COc4c(-c5c(C)c(F)cc6[nH]ncc56)c(C5CC5)cc5c(N6CC7CC6CN7)nc(OC6CCOCC6)nc45)cc3)nn2)cc1 (stereo not drawn)
| system | conditions | tumour volume |
| --- | --- | --- |
| KP-4 xenograft, mouse | 30 mg/kg once weekly, day 7 | 227 mm3 and 316 mm3 and 232 mm3 and 317 mm3 and 272 mm3 |
| mouse, lung LXFA sample B PDX | 10 mg/kg twice weekly, day 0 | 85.6 mm3 and 363 mm3 and 56.5 mm3 and 50.4 mm3 and 93 mm3 and 212 mm3 and 163 mm3 and 103 mm3 |
| mouse, lung LXFA sample A PDX | 30 mg/kg twice weekly, day 13 | 62.8 mm3 and 128 mm3 and 110 mm3 and 55 mm3 and 101 mm3 and 8.1 mm3 and 30.5 mm3 and 89.6 mm3 |
| GP2d xenograft, mouse | 30 mg/kg once weekly, day 4 | 228 mm3 and 143 mm3 and 178 mm3 and 179 mm3 |
| mouse, HT-29 xenograft | sc, 30 mg/kg once daily, day 13 | 575 mm3 and 690 mm3 and 914 mm3 and 709 mm3 and 869 mm3 |
| mouse, PK-59 xenograft | 30 mg/kg, day 4 | 291 mm3 and 220 mm3 and 269 mm3 and 214 mm3 and 247 mm3 |
| mouse, A-375 xenograft | sc, 30 mg/kg once daily, day 3 | 222 mm3 and 213 mm3 and 162 mm3 and 197 mm3 and 242 mm3 |
| mouse, A-375 xenograft | sc, 30 mg/kg once daily, day 6 | 204 mm3 and 371 mm3 and 298 mm3 and 331 mm3 and 265 mm3 |
| mouse, A-375 xenograft | sc, 30 mg/kg once daily, day 15 | 1020 mm3 and 719 mm3 and 713 mm3 and 689 mm3 and 1240 mm3 |
